Assay results of several laboratories.
Every numbered part comes from another study and shows a few of its results, in no order. Changes are numbered by the printed parent chain.

Block 1
Target: Ras GTPase-activating protein-binding protein 1, full length (G3BP1, Homo sapiens, UniProt Q13283)
Sequence of UniProt Q13283 (whole entry, looked up): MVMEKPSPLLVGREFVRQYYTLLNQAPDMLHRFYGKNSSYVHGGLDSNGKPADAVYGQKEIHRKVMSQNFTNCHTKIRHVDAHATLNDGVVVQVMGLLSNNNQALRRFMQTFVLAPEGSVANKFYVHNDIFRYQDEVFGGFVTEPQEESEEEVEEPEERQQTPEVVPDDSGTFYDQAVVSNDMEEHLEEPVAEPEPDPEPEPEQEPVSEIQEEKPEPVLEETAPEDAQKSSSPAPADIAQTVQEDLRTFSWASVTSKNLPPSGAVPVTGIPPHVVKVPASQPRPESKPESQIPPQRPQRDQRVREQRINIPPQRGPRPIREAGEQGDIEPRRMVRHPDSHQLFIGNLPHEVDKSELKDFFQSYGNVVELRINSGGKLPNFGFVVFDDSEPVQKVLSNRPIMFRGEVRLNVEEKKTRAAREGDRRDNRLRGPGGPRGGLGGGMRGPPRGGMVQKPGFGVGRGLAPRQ
Technique: RNA Bind-n-Seq
Molecule type: RNA
Medium: in vitro
Concentration: 200 nM
Setting: whole 134-nt RNA, ends assumed
With: 150 mM KCl
Relative to: input library
Direction: higher = stronger binding
Quantity: log2 enrichment
Constant ends, left off below: GGGAGUUCUACAGUCCGACGAUC … UGGAAUUCUCGGGUGUCAAGG
Sequence = AAGUCCUGUGCUACACAUCGUAUGUACCGAAUCGGUUUUUGGAAAAAGGAAAAAGGAAAGUAUUAUGUUACGCCGUUCGGAUCUGCACUU; value = -1.1
Sequence = ACCAUGCAGGUGGGCAUCUUUGGGAAGUGGGGCAAGGGGGGGAUAGGGAGGGGGGUAACACUUUGGGAACAGGUGGUCCCCGGUCGUUUC; value = 1.45
Sequence = CACAGACAACACGAAACCACACAGACACAGAGGGAAGGGGUUGGGAUGGGGACAGGGUGCACAGCAGGGCGGGGUAGGACCCCAGCCCCU; value = 1.74
Sequence = CCUCAAGUCCUGUGCUACACAUCGUAUGUACCGAAUCGGUGGAGGUUUUUGGAAAGUAUUAUGUUACGCCGUUCGGAUCUGCACUUCCAG; value = -0.158
Sequence = CACAGACAACACGCACCCACACAGACACAGAGGGAAGGGGUUGCGAUGGGGACAGGGUGCACAGCAGGGCGGGGUAGGACCCCAGCCCCU; value = 1.48
Sequence = CAAGUCCUGUGCUACACAUCGUAUGUACCGAAUCGGUUUGGGGUUUGGGUUUGGGGAAAGUAUUAUGUUACGCCGUUCGGAUCUGCACUU; value = -0.291
Sequence = UCAAGUCCUGUGCUACACAUCGUAUGUACCGAAUCGGAAAAAAAGGAAAGGUGGAAAGUAUUAUGUUACGCCGUUCGGAUCUGCACUUCC; value = -1.49
Sequence = UGGCCCUGGUGGCAUGCGGGGAGGAAGAGGUGGCCUCAUGGAUCGUGGUGGUCCCGGUGGAAUCUUCAGAGGUGGCCGUGGUGGAGACAG; value = 0.00878
Sequence = AUCAUGCAGGUGGGCAUCUUUGGGAAGUGGGGCAAGGGGGGGAUAGGGAGGGGGGUAACACUUUGGGAACAGGUGGUCCCAGGUCGUUUC; value = 1.18
Sequence = AGUCCUGUGCUACACAUCGUAUGUACCGAAUCGGGAAAAAAAGGGUUUUUGGGUGGGAAAGUAUUAUGUUACGCCGUUCGGAUCUGCACU; value = -0.0593
Sequence = GUCCUGUGCUACACAUCGUAUGUACCGAAUCGGGGCCCCCGGGGCCCCCGGCCCCCGGAAAGUAUUAUGUUACGCCGUUCGGAUCUGCAC; value = 0.347
Sequence = UCAAGUCCUGUGCUACACAUCGUAUGUACCGAAUCGGUUUGGUUUGGGGUUUGGAAAGUAUUAUGUUACGCCGUUCGGAUCUGCACUUCC; value = -0.707
Sequence = CACAGACAACACGCACCCACACAGACACAGAGGGAAGGGGUUGGGAUGGGGUCAGGGUGCACAGCAGGGCGGGGUAGGACCCCAGCCCCU; value = 2.06
Sequence = ACCAUGCAGGUGGGCAUCUUUGGGAAGUGGGGCAAGGGGGGGAUCGGGAGGGGGGUAACACUUUGGGAACAGGUGGUCCCAGGUCGUUUC; value = 1.25

Block 2
Target: RNA binding protein fox-1 homolog 2, RRM domain, GST-SBP tag (RBFOX2, Homo sapiens, UniProt O43251-10, residues 100-194)
Technique: RNA Bind-n-Seq
Molecule type: RNA
Medium: in vitro
Concentration: 365 nM
Setting: natural RNA segment, single round, ends assumed
Relative to: no-protein control
Direction: higher = stronger binding
Quantity: RBNS enrichment (R)
Constant ends, left off below: GGGAGUUCUACAGUCCGACGAUC … UGGAAUUCUCGGGUGCCAA
Construct (chain): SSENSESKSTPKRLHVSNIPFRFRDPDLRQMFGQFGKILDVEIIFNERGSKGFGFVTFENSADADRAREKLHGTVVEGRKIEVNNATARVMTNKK
Sequence = AACUGUGUUUCUGAAGUUUGUGCACAUUUUUCUUCACUGUAAUGUUAUUUUACAGCUGUUUGUUAAAAUAGUGAAUAAUUUAAUGAUCCUAAAAGUAACAGGUUUCGUGU; value = 0.415
Sequence = CCACUUCCCGUGCCUAUGAUUUGCUCUAGCAUUUCUGCCACCUGACAAGGAGAGGAGCUUGCUAAAGUUUAAAGUUUAUUUCAACGCUAAGAUCCCAACCUUCCGAUCUC; value = 0.377
Sequence = AAUUCCACCAAGACAGUGCUGAGAUUGGAAAAGGGCACUCAUUUGGAUUGCCUUACUUCUCUUGCCUUAAAUAUAUCCCAUAUAUUUAAUAUGUCAAAAAGGGCUUGAGG; value = 0.547
Sequence = UGCACUUUGAAUAUGGAAGAGAAUUUGAGCAGACCCCCGCGGGACCAAGACUGAAAGAGGCAAGGUCUCCUUGCCUCGGCCCAGUGAUCAUGACAGGAAUGAACCCAAAC; value = 0.774
Sequence = AGGGGUUGAUGGUGGAUGAAAUUGAUUUCUGGCUGGUUACUAAGGUGCCUGCUAGCCAUUGUAUAAAAUUAAAACAUGAAGAAUAUUUGUUUUGAGCAUGGCUAGUGGAU; value = 1.45
Sequence = CAUUUCCUCUUUCUAGCCGUCCUUUUCUAGUGUGUGCUCACUCUUCCUAGGAACUUUUAAGACUUCUUGGUACCUAUGAACAUAGGUCCUCCCCUCACCCCAACUCUAGG; value = 0.363
Sequence = GUCGUGAGCUCUCCUACAUCUAUUUCCGGUUUUGAUUCCAGUCAUACCAGUAUUUCCAUAACAGAGAAUGGUGAGCCCUAUGAUGCUGAAGGGAUUCCAUCUCUCCAUCU; value = 0.765
Sequence = UUCUGUAAAGCCACUUGUCUGUGUGACACUGAGAUAAAAUAGGUCUUUGUUAUUUUCAACUGUUCUAUGCUGUGACGAUGAGGAGGAGAUGUCUGUUGGAUUCAUGUCUU; value = 0.445
Sequence = ACUUUUAUGGCGUUAAUUUCCUGCCACUACAGAUCUUUUGAAGAUUGCUGGAAUACUGGUGUCUGUUAGAAUGCUUCAGACUACAGAUGUAAUUAAAGGCUUUUCUUAAU; value = 1.03
Sequence = AUUGGUUUUUAGGGGCCCCACUUCCCAAUUCAUUAGGUAUGACUGUGGAAAUACAGACAAGGAUCUUAGUUGAUAUUUUGGGCUUGGGGCAGUGAGGGCUUAGGACACCC; value = 0.314
Sequence = GAGAACUAUAUGCAGAUUUUAAAAUCUAGUCAGUACUAGCAUCUAUAAAGGGCUUUUCUGAAAUUUAAACAGCUUGGUGAUGCAUCCUGAUAUUAUAAGCUUAAAACUAU; value = 0.962
Sequence = GAUGUUUGCCUGUCCGCUUUAUCUUUGUAGUACAUGAACAGUUCAGCCUUAGACUAUGUAACUGUUUUCUCAUCCUUAGCUGAAAAUGAGGGGCCUACUGUAUUGCGAGA; value = 0.567

Block 3
Target: Interferon regulatory factor 3, full length, phosphomimetic (IRF3, Homo sapiens, UniProt Q14653, residues 1-427, S386D/S396D/S398D/S402D/T404D/S405D)
Technique: protein-binding microarray
Molecule type: double-stranded DNA, one strand shown
Medium: in vitro
Concentration: 2540 nM top
Setting: 60-bp whole probe
With: salmon DNA 0.4 mg/ml
Relative to: random background probes
Direction: higher = stronger binding
Quantity: fitted relative affinity
Constant ends, left off below: GCCTAGCAC … GTCTTGATTCGCTTGACGCTGCTG
Construct (chain): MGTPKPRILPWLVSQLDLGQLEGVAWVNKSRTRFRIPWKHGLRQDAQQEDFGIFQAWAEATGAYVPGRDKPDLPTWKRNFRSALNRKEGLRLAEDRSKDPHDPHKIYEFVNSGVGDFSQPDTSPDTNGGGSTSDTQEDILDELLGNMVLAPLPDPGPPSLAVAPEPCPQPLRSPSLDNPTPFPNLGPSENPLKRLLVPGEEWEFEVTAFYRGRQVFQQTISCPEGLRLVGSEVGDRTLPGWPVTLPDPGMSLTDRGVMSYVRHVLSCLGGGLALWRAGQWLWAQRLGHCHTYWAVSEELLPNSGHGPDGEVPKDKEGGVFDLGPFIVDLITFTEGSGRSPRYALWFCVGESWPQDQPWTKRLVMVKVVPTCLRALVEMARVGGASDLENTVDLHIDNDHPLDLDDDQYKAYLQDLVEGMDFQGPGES
Sequence = TTATAACTGAGTATCGATTAGTGCTAG; value = 0.454 z-score
Sequence = TCATTTTTTTTTTTTTTACTGTGCTAG; value = 1.08 z-score
Sequence = TTAGGTAACGGGTTTCGGTTAGTGCTA; value = 2.97 z-score
Sequence = TTAGGACTGGGTCTCGCTTAGTGCTAG; value = -0.877 z-score
Sequence = TTAAGACTGGGACTGGGTTAGTGCTAG; value = -1.09 z-score
Sequence = TCAACTTCTCTTTTTGCACTGTGCTAG; value = 1.49 z-score
Sequence = TTATGTATCGACACTGGGTTAGTGCTA; value = 0.537 z-score
Sequence = GACGAACTGGGGTTTCGATACGTGCTA; value = 2.07 z-score
Sequence = TACGGTATCCTTTTCCTGACGTGCTAG; value = 7.58 z-score
Sequence = GTAGGTCTCCTTTTCCTTTAGTGCTAG; value = 5.31 z-score
Sequence = TTAGGTTCCCTTTACCTTTAGTGCTAG; value = 5.95 z-score

Block 4
Target: Histone acetyltransferase KAT6A, winged helix 2, GST fusion (KAT6A, Homo sapiens, UniProt Q92794, residues 85-181)
Technique: protein binding microarray
Molecule type: double-stranded DNA, one strand shown
Medium: in vitro
Concentration: not given
Setting: 8-mer, flanks averaged, mean of 2 arrays, mostly near background
Relative to: not given
Direction: higher = stronger binding
Quantity: E-score
Target sequence (chain): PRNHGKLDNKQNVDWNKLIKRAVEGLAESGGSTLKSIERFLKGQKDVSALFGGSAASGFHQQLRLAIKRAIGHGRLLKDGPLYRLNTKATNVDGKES
Sequence = AAACCCCA; value = -0.149
Sequence = CCCGAATC; value = 0.136
Sequence = AAGATTGG; value = -0.0516
Sequence = GGCTAACC; value = -0.0948
Sequence = CGGGGCGC; value = 0.188
Sequence = CCGTTCCC; value = 0.175
Sequence = GGATAAAC; value = 0.164
Sequence = GCTTCCAC; value = 0.0497
Sequence = ATTTGCAC; value = -0.0344
Sequence = CACTACAC; value = -0.0273
Sequence = TGACCCCA; value = -0.0347
Sequence = GCATCGCA; value = 0.0692
Sequence = CGGGAACA; value = 0.188
Sequence = ATACTGAT; value = 0.051
Sequence = AAGGCTCC; value = -0.183
Sequence = ATTTACAA; value = -0.01
Sequence = CAAACGTG; value = -0.176
Sequence = CCCTTCGA; value = 0.133
Sequence = AGGTGAAA; value = -0.00543
Sequence = AACCCAGC; value = 0.0204

Block 5
Target: ABI1, truncated, D143A, DHFR fusion (Arabidopsis thaliana)
Technique: DHFR PCA, deep sequencing
Medium: yeast
Setting: methotrexate growth selection, single substitutions
With: (+)-ABA 0.39 µM
Relative to: wild-type fitted maximum
Direction: higher = stronger binding
Quantity: relative binding score
Parent: PYL1, truncated, DHFR fusion (Arabidopsis thaliana); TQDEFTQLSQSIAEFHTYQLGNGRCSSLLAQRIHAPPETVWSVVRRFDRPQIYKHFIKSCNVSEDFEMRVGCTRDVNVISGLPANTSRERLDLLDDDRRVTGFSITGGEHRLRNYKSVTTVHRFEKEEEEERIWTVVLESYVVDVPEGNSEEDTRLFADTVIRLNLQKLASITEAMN; partner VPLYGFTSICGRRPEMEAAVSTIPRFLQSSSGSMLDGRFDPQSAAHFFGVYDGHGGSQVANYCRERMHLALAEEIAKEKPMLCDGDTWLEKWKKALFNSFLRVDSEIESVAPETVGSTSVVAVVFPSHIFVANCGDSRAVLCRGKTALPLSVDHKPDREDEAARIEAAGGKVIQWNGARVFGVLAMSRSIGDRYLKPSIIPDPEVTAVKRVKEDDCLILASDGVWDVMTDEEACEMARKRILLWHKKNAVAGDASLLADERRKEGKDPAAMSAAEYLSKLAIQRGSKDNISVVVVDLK
Variant = L93A; value = 14.7%
Variant = G21S; value = 49.6%
Variant = I33E; value = -1.98%
Variant = E129A; value = 53.8%
Variant = V136L; value = 33.1%
Variant = I12W; value = 1.02%
Variant = E38C; value = -0.836%
Variant = E128P; value = 31.3%
Variant = S150M; value = -13.8%
Variant = R74A; value = -4.33%
Variant = E127Y; value = 32.5%
Variant = T160K; value = 6.4%
Variant = L138N; value = -25.5%
Variant = D144N; value = 4.03%
Variant = L166G; value = 4.44%
Variant = L28N; value = -8.11%

Excerpt of the above (block 4):
Sequence = AAACCCCA; value = -0.149
Sequence = CCCGAATC; value = 0.136
Sequence = AAGATTGG; value = -0.0516
Sequence = GGCTAACC; value = -0.0948
Sequence = CGGGGCGC; value = 0.188
Sequence = CCGTTCCC; value = 0.175
Sequence = GGATAAAC; value = 0.164
Sequence = GCTTCCAC; value = 0.0497
Sequence = ATTTGCAC; value = -0.0344
Sequence = CACTACAC; value = -0.0273
Sequence = TGACCCCA; value = -0.0347
